Experimental data collected from several papers.
Lines come from different studies, so protocols differ. Several values in a cell are separate wells, animals, samples, runs or records. Numbers after ± are the reported error.

With `CC(=O)N([O-])CCCCCNC(=O)CCC(=O)N([O-])CCCCCNC(=O)CCC(=O)N([O-])CCCCCN.[89Zr+4]` the intact complex was 64.1 ± 0.8% (radio-TLC; aqueous buffer; 7 d, pH 7, 37 °C, 89Zr-labelled complex, added: DTPA 1000-fold excess).
The MCH of `Cc1ccc(CN2C(=O)/C(=N\c3ccc(Cl)cc3Br)c3ccccc32)cc1` is reported as 14.8 ± 0.18 pg (mouse, blood; 150 mg/kg).
With `CCCCN1C(=O)c2cccc3c(NCCCCCCN4CCOCC4)ccc(c23)C1=O` the emission maximum was 517 nm (dichloromethane).
For `O=C(c1ccnc(N2Cc3cnn(Cc4ccc(F)cc4)c3C2)n1)N1CCOCC1`, the half-life was 0.717 h (metabolic stability; rat, liver microsomes).
`CC(CCC(=O)NCC(=O)O)C1CCC2C3CCC4CC(OC5OC(C(=O)O)C(O)C(O)C5O)CCC4(C)C3CC(O)C12C` (centres unmarked) — result for “relative peak deviation”: 143 ± 31% (human, plasma; endogenous baseline diurnal; relative to: daily mean concentration).
With `COc1cccc(OC)c1-c1cc(C(=O)NC2(C(=O)O)C3CC4CC(C3)CC2C4)nn1-c1ccc(C(=O)NCCNC(=O)[C@H](CCCCNC(=O)[C@H](CC(C)C)NC(=O)C2OC2C(=O)O)NC(=O)CN2CCN(CC(=O)[O-])CCN(CC(=O)[O-])CCN(CC(=O)[O-])CC2)cc1C(C)C.[177Lu+3]` (mixture of isomers) the tumour-to-pancreas ratio was 17.9 (mouse HT-29 xenograft; 72 h, biodistribution; relative to: tumour over pancreas).
`Cc1cnc2nc1Nc1cccc(c1)COC/C=C/COCc1cc(ccc1OCCN1CCOCC1)N2` has a body weight of 19.3 g and 19.4 g and 18.9 g and 17.4 g and 18.1 g and 19.1 g (BALB/c mice, rhEPO-induced polycythemia; 100 mg/kg, day 4).
With `CCCCN1C(=O)c2cccc3c(NCCCCCCCCN4CCOCC4)ccc(c23)C1=O` the emission maximum was 559 nm (water; pH 6.0).
`C=C(NC(=O)c1csc(-c2nc3c(cc2O)-c2nc(cs2)C(=O)NC(C(C)O)C(=O)NC(=C(C)OC)c2nc(cs2)C(=O)NC2c4nc(cs4)C(=O)NC(COC(=O)c4c5c6c(cccc6n4O)COC(=O)C(OC4CC(C)(O)C(N(C)C)C(C)O4)C2OC5)c2nc-3cs2)n1)C(N)=O` (centres unmarked) gave an AUC(0-last) of 2350 ng·h/mL (Sprague-Dawley rat, female, plasma; intravenous infusion, 6 mg/kg single dose).
For `COC1C=COC2(C)Oc3c(C)c(O)c4c(c3C2=O)C2=NC3(CCN(CC(C)C)CC3)NC2=C(NC(=O)C(C)=CC=CC(C)C(O)C(C)C(O)C(C)C(OC(=O)Nc2cccnn2)C1C)C4=O` (centres unmarked), “volume of distribution” read 0.5 L/kg (CD-1 mouse, female, plasma; intravenous, 5 mg/kg).
For `O=C(c1ccccc1)N1C(c2ccc(OCC3CCN(CCCF)C3)cc2)c2ccc(O)cc2CC12CC2` (centres unmarked), the Cmax was 752 ng/mL (C57BL/6J mouse, plasma; oral, 25 mg/kg, group mean).
`CC[C@H](C)[C@@H]1NC(=O)[C@H](Cc2ccccc2)NC(=O)CCSCc2cccc(c2)CSCCNC(=O)[C@H](Cc2c[nH]cn2)NC(=O)[C@H](Cc2ccc(O)cc2)NC(=O)[C@H](CC(=O)O)NC(=O)[C@H](Cc2ccc(F)cc2)NC(=O)[C@H](CC(C)C)NC(=O)[C@H](CCCCN)NC1=O` gave a membrane retention of under 0.21% (PAMPA; 200 µM, 5 h, pH 7.4).
For `C=C[C@]1(C)C[C@@H](OC(=O)CSc2ccc(NC(=O)c3ccco3)cc2)[C@]2(C)[C@H](C)CC[C@]3(CCC(=O)[C@H]32)[C@@H](C)[C@@H]1O`, “apparent volume of distribution” read 6.97 L/kg (M. gallisepticum-infected chickens, plasma; intramuscular, 40 mg/kg single dose).
`COc1ccnc(C(=O)N[C@H]2COC(=O)[C@H](Cc3ccccc3)[C@@H](OC(=O)C(C)C)[C@H](C)OC2=O)c1O` — result for “Freundlich coefficient KF”: 120 mL/g (soil adsorption; clay soil; pH 7.6, organic carbon 1.7 %).
`O=C(Nc1cnccc1-c1ccc([18F])nc1)c1ccnc(NC(=O)C2CC2)c1` gave an SUV of 0.333 (mice, transgenic, GSK-3β, early-stage, large intestine; intravenous, dose not given, 120 min, added: tariquidar 15 mg/kg i.v. pre-dose).
`CC1(C)C(=CC=C2CCCC(C=CC3=[N+](CCC[N+](C)(C)C)c4ccc(S(=O)(=O)O)cc4C3(C)C)=C2SCCOCCOCCC(=O)O)N(CCC[N+](C)(C)C)c2ccc(S(=O)(=O)O)cc21` — result for “emission maximum wavelength”: 834 nm (DMSO).
`COc1cccc(OC)c1-c1cc(C(=O)NC2(C(=O)O)C3CC4CC(C3)CC2C4)nn1-c1ccc(C(=O)N(C)CCCN(C)CCCN(C)C(=O)[C@H](CCCCNC(=O)[C@H](CC(C)C)NC(=O)C2OC2C(=O)O)NC(=O)CN2CCN(CC(=O)[O-])CCN(CC(=O)[O-])CCN(CC(=O)[O-])CC2)cc1C(C)C.[177Lu+3]` (mixture of isomers) gave a tumour-to-spleen ratio of 12.4 (mouse HT-29 xenograft; 24 h, biodistribution; relative to: tumour over spleen).
Under “terminal elimination rate constant”, `CCCN(C)c1cc(C(F)(F)F)nc(SCCC(=O)NCc2ccco2)n1` is recorded as 0.000177 s⁻¹ (male Wistar rat, plasma; intraperitoneal, 25 mg/kg).
For `CC(C)(c1cc(Br)c(O)c(Br)c1)c1cc(Br)c(O)c(Br)c1`, “dose fraction in milk fat” read 45.7% (whole cow milk; 2000 nM nominal).
With `CCCCN1C(=O)c2cccc3c(NCCCN4CCOCC4)ccc(c23)C1=O` the emission maximum was 505 nm (dioxane).
With `O=C(Nc1cnccc1-c1ccc([18F])cc1)c1ccnc(NC(=O)C2CC2)c1` the SUV was 0.23 (FVB/NJ mice (both sexes), pancreas; intravenous, dose not given, 120 min).
For `C/C(N)=N/C(=N\S(=O)(=O)c1ccc(C(F)(F)F)cc1)N1C[C@H](c2ccccc2)C(c2ccc(Cl)cc2)=N1`, the AUC(0-inf) was 18500 ng·h/mL (female cynomolgus monkey, plasma; intravenous, 2 mg/kg).
The emission maximum of `CCCCN1C(=O)c2cccc3c(NCCCCCN4CCOCC4)ccc(c23)C1=O` is reported as 508 nm (dichloromethane).
With `Cc1ccc(OCC(=O)N(Cc2cccs2)c2ccn[nH]2)cc1` the remaining compound was 113 (dog plasma; 750 ng/mL, 0.5 h, 37 °C, unit not given; relative to: time zero).
For `CCCCN1C(=O)c2cccc3c(NCCCCCCCCCCN4CCOCC4)ccc(c23)C1=O`, the emission maximum was 525 nm (DMF).
With `O=C(NS(=O)(=O)c1cccs1)c1cc2ccccc2n1Cc1ccc(Br)c2ccccc12` the body weight was 29 g and 29.6 g and 30.2 g and 31.8 g and 25.4 g and 29.4 g (KM mouse, chronic hyperuricaemia model; dose not given, day 9).
The half-life of `Cc1cc(NC(=O)[C@H](O)c2cc(F)cc(F)c2)ccc1-c1cnc(N)c(C(=O)NC(C)C)c1` is reported as 2.1 h (female nude mouse, plasma; oral, 10 mg/kg, single dose).
`COC1CN([C@H]2CC[C@H]([C@@]3(C)Oc4c(Cl)cc(C(=O)NCc5c(SC)cc(C)[nH]c5=O)c(C)c4O3)CC2)C1`: “log2 fold change” 1.18 (RNA-seq, refers to: MTERF2; human, whole blood; dose not given, 24 h; relative to: pretreatment baseline).
`CC(C)CCCC(C)C1CCC2C3CC=C4CC(OC(=O)NCCOCCOCCOCCn5cc(CN(CCCNC(=O)c6ccc(C(=O)[O-])c(-c7c8ccc(=O)cc-8oc8cc(O)ccc78)c6)CCCNc6ncnc7c6ncn7C6OC(COP(=O)(O)OP(=O)(O)OP(=O)(O)OCC7OC(n8c[n+](C)c9c(O)nc(N)nc98)C(O)C7O)C(O)C6O)nn5)CCC4(C)C3CCC12C` (centres unmarked) gave a diffusion coefficient of 159 ± 36 µm²/s (fluorescence correlation spectroscopy; water; 36 °C).
For `[123I]c1ccc2nc(-c3ccc(-n4ccnn4)nc3)cn2c1`, the tracer uptake was 0.046 %ID/g (male Wistar rat, pancreas; intravenous, 4 MBq, 6 h).
With `C=CC(=O)Nc1cc(Nc2nccc(-c3cn(C)c4ccccc34)n2)c(OC)cc1N(C)CCNC` the recovery was 98.2% (storage stability; human plasma; 30 d, -80 °C, LLOQ level).
`CC(C)(O)c1ncc([S@](N)(=O)=NC(=O)Nc2c3c(cc4c2CCC4)CCC3)s1`: “subjects with TEAEs” 17% (refers to: metabolism, nutrition disorders; healthy human; oral, 100 mg, CT formulation, fed).
The fecal excretion of `Cc1[nH]c(=O)c(CNC(=O)c2cc(Cl)c3c(c2C)O[C@@](C)([C@H]2CC[C@H](N(C)C)CC2)O3)c(C)c1O` is reported as 7.6% and 4.5% and 5.7% and 5.3% (radiochromatography; human, feces; oral, 200 mg; relative to: dose).
Under “log2 fold change”, `Cc1ncsc1-c1ccc(C(C)NC(=O)C2CC(O)CN2C(=O)C(NC(=O)CCCCCCCCCCN2CCCC(Nc3ncc(Cl)c(Nc4ccccc4S(=O)(=O)C(C)C)n3)C2)C(C)(C)C)cc1` (centres unmarked) is recorded as -1.13 (22Rv1; RNA-seq, refers to: PRIM1 mRNA; concentration not given; relative to: DMSO).
`Cc1[nH]nc2c1N=C(c1ccccc1Cl)c1cnc(N3CCOCC3)cc1N2` has a scaled CLint of 78.3 mL/min/kg (metabolic stability; monkey, liver microsomes; 1 µM, pH 7.4).
`CN(C)c1ccc(/C=C/c2cc(=O)cc(/C=C/c3ccc(N(C)C)cc3)o2)cc1` has an emission maximum of 559 nm (acetonitrile; 10 µM, 298 K).
The emission maximum of `CCCCN1C(=O)c2cccc3c(NCCN4CCOCC4)ccc(c23)C1=O` is reported as 538 nm (water; pH 6.0).
The Tmax of `CC(C)C[C@H](NC(=O)[C@H](CCCN)NC(=O)CNC(=O)[C@@H](NC(=O)[C@H](C)NC(=O)[C@@H]1CSCSC[C@H](NC(=O)CC[C@H](N)C(=O)O)C(=O)N[C@@H](CC(N)=O)C(=O)N[C@@H]([C@@H](C)O)C(=O)N[C@@H](C)C(=O)N[C@@H]([C@@H](C)O)C(=O)N1)[C@@H](C)O)C(=O)N[C@@H](C)C(=O)N[C@@H](CCC(=O)O)C(=O)N[C@@](C)(Cc1ccccc1)C(=O)N[C@@H](CC(C)C)C(=O)N[C@H](C(=O)N[C@@H](CCCNC(=N)N)C(=O)N[C@@H](CO)C(=O)N[C@@H](CO)C(=O)N[C@@H](CC(N)=O)C(=O)N(C)[C@@H](CC(N)=O)C(=O)N[C@@H](Cc1ccccc1)C(=O)NCC(=O)N1CCC[C@H]1C(=O)N[C@@H](CCCCNC(=O)CC[C@H](NC(=O)CC[C@H](NC(=O)CCCCCCCCCCCCCCCCCCC(=O)O)C(=O)O)C(=O)O)C(=O)N[C@@H](CC(C)C)C(=O)N1CCC[C@H]1C(=O)N1CCC[C@H]1C(=O)N[C@H](C(=O)N[C@@H](CCC(=O)O)C(=O)N[C@H](C(=O)NCC(=O)N[C@@H](CO)C(=O)N[C@@H](CC(N)=O)C(=O)N[C@H](C(=O)N[C@@H](Cc1ccc(O)cc1)C(N)=O)[C@@H](C)O)C(C)C)[C@@H](C)O)C(C)C` is reported as 72 h (human, plasma; subcutaneous, 4 mg, single dose, healthy volunteers).
The half-life of `O=C(c1ccnc(N2Cc3cn(Cc4ccc(F)cc4)nc3C2)n1)N1CCOCC1` is reported as 1.78 h (metabolic stability; rat, liver microsomes).
For `CC(C(=O)O)n1nc(Cn2cc3cc(OCC[18F])c(Cl)cc3n2)c2ccccc2c1=O` (racemic), the tracer uptake was 0.14 %ID/g (rat, bone; 30 min).
For `CC[C@H](C)[C@@H]1NC(=O)[C@H](Cc2ccc(O)cc2)NC(=O)CCCSC[C@@H](C(=O)N(CC(=O)N[C@@H](CC(C)C)C(=O)NCC(N)=O)Cc2ccc(F)cc2)NC(=O)[C@H](CC(N)=O)NC(=O)[C@H](CCC(N)=O)NC1=O`, “adverse drug reactions” read 67% (human; intranasal, 200 µg single dose).

Some of these lines once more:
With `CCCCN1C(=O)c2cccc3c(NCCCCCCCCN4CCOCC4)ccc(c23)C1=O` the emission maximum was 559 nm (water; pH 6.0).
For `O=C(c1ccnc(N2Cc3cnn(Cc4ccc(F)cc4)c3C2)n1)N1CCOCC1`, the half-life was 0.717 h (metabolic stability; rat, liver microsomes).
With `C=CC(=O)Nc1cc(Nc2nccc(-c3cn(C)c4ccccc34)n2)c(OC)cc1N(C)CCNC` the recovery was 98.2% (storage stability; human plasma; 30 d, -80 °C, LLOQ level).
`Cc1[nH]nc2c1N=C(c1ccccc1Cl)c1cnc(N3CCOCC3)cc1N2` has a scaled CLint of 78.3 mL/min/kg (metabolic stability; monkey, liver microsomes; 1 µM, pH 7.4).
